Results pooled from the literature.
Protocols differ between the studies behind these lines. “And” joins repeats or separate records; there may be more than shown. ± marks the error that the study gave. ≈ marks a conversion by molar mass, not a printed value.
Chain of UniProt P16234 (whole entry, looked up): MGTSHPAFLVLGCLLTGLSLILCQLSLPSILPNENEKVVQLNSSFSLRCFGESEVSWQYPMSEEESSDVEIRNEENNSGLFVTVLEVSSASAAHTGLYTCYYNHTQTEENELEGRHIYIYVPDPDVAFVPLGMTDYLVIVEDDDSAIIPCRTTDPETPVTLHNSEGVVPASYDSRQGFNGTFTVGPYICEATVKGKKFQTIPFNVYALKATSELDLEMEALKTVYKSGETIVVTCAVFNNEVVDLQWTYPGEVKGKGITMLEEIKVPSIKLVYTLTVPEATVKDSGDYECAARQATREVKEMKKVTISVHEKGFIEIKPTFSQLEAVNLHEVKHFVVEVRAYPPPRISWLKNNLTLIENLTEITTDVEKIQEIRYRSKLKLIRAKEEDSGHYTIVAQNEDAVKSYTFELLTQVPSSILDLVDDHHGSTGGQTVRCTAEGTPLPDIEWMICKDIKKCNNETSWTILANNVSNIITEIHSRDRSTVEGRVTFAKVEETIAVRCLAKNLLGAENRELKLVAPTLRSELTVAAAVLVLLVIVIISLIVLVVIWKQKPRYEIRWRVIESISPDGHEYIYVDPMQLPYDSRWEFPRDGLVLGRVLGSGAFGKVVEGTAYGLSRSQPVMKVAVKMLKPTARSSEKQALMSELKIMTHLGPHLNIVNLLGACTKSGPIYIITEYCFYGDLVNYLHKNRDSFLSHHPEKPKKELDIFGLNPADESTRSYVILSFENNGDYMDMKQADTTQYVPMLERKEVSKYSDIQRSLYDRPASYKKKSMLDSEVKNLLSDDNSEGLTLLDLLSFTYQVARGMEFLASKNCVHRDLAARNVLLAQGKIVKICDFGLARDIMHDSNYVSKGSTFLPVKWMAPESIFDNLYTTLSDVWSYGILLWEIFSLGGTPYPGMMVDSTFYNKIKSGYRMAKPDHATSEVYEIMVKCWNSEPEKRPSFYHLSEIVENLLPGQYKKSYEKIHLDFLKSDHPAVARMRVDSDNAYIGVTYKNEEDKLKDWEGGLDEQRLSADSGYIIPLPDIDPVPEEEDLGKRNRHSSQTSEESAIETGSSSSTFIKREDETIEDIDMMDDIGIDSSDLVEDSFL
Chain of UniProt O95835 (whole entry, looked up): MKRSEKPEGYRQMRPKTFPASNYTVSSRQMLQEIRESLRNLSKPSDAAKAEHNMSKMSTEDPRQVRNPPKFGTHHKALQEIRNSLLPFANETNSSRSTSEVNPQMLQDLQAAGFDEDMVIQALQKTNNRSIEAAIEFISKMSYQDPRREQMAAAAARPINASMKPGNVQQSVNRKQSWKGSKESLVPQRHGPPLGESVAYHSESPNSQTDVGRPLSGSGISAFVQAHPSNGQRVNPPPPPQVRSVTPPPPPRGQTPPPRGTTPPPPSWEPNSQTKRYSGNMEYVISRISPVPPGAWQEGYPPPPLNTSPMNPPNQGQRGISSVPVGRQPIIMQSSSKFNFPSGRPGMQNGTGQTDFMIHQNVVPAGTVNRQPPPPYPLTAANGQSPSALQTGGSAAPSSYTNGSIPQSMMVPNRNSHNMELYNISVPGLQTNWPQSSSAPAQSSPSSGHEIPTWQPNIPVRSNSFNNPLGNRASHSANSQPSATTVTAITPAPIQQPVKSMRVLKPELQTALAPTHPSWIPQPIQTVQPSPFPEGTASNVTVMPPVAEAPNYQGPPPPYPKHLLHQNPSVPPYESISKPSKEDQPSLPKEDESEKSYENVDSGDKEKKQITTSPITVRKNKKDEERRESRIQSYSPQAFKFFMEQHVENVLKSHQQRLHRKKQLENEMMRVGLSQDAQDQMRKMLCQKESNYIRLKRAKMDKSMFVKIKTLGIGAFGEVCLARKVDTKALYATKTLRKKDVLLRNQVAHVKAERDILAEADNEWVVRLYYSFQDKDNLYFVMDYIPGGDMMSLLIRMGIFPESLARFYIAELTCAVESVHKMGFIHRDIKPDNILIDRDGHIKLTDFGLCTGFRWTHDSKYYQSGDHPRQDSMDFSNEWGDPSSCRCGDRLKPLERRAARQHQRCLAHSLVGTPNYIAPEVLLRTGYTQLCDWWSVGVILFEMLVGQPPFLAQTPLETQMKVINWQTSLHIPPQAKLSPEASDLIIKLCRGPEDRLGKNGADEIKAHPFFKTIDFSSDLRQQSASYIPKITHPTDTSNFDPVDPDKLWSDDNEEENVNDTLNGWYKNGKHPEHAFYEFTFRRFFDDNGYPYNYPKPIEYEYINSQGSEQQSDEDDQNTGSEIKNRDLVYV
Chain of UniProt P05771 (whole entry, looked up): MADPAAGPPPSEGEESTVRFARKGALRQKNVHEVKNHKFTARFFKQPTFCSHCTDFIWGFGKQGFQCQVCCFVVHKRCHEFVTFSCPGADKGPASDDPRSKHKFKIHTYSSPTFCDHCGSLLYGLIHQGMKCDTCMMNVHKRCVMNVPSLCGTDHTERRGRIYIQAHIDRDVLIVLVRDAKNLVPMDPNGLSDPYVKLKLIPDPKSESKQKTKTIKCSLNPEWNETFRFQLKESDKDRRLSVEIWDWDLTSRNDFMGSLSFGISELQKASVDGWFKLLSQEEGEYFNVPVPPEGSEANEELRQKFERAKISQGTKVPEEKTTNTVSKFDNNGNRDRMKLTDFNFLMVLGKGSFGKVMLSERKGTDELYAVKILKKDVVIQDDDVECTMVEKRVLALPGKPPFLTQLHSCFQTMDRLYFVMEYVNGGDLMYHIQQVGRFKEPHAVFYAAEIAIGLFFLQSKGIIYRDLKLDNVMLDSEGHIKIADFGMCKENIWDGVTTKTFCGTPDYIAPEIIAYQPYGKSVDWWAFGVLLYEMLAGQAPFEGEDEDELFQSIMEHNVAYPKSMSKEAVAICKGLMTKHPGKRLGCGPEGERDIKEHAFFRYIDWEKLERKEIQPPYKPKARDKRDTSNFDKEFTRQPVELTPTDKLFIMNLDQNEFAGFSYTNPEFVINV
Chain of UniProt P14616 (whole entry, looked up): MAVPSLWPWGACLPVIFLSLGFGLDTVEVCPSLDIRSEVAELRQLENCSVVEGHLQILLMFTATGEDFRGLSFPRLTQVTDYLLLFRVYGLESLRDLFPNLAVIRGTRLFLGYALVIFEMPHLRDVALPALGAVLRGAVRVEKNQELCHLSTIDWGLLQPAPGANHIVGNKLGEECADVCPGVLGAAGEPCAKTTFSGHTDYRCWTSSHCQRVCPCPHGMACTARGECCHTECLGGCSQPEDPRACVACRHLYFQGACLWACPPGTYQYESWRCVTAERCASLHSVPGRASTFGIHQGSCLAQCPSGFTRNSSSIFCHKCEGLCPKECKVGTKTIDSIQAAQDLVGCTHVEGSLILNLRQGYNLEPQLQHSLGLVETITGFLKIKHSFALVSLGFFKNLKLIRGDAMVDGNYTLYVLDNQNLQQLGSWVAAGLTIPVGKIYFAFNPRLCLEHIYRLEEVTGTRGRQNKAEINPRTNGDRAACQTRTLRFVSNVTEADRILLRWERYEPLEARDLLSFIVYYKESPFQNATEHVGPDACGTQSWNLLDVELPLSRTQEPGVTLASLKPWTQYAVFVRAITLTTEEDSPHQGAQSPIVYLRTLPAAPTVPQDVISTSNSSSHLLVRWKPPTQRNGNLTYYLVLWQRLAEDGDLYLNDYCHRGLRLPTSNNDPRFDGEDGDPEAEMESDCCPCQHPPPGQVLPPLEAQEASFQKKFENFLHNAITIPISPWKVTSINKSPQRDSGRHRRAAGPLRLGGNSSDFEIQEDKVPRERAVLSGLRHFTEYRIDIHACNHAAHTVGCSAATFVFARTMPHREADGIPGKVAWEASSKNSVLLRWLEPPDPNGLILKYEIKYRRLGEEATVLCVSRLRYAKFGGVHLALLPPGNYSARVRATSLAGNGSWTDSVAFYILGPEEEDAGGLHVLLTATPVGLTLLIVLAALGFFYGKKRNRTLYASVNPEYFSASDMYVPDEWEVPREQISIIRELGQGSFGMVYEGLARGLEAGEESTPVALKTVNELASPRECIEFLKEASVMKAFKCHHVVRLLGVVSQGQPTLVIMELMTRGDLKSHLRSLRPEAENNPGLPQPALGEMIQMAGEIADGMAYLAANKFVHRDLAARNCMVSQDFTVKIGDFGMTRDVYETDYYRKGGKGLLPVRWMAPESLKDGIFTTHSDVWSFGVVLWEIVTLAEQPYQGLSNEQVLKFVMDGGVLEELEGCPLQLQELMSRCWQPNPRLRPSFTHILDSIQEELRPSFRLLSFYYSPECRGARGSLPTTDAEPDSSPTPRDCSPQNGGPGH

Compound	tested on	assay	system	conditions	scale	measurement	value
CC1COC2=C1C(=O)C(=O)c1c2ccc2c1C(OC(=O)CNC(=O)CN)CCC2(C)C (mixture of isomers)			saline with 20% PEG 400	24 h, 25 °C		equilibrium solubility	509 µg/mL
CN(C)CCCNC(=O)[C@@H]1NC(=O)[C@@H]2Cc3ccc(cc3)Oc3cc4cc(c3O)-c3ccc5c(c[nH]c5c3)C[C@@H](NC(=O)C(NC(=O)CCCCCN)c3ccc(O)cc3)C(=O)N[C@H](c3ccc(O)cc3)C(=O)N[C@H]4C(=O)N[C@@H](C(=O)N2C)c2ccc(cc2)Oc2cc1ccc2O (stereo partly drawn)			saline	24 h, 25 °C		thermodynamic solubility	98.6 µg/mL (≈ 74.8 µM)
CN1Cc2cc(Cl)ccc2-n2c(nnc2C2CCN(c3cccc([18F])n3)CC2)C1			C57BL/6 mouse male, brain	intravenous, 3.7 MBq, 60 min		tissue uptake	0.28 ± 0.05 %ID/g
CN(C)[C@H]1C[C@@]23CC[C@@]4(O2)C(=CC[C@]2(C)[C@@H](c5ccc6ccncc6c5)CC[C@H]24)C=C3[C@@H](O)[C@@H]1O	LATS1 (Homo sapiens, UniProt O95835)	ATP probe labelling, inhibitor, KiNativ profiling		1 µM		inhibition	-6.5%
CC(C)C[C@@H](NC(=O)[C@@H](CCCNC(=N)N)NC(=O)[C@@H](Cc1c[nH]cn1)NC(=O)[C@@H](Cc1c[nH]c2ccccc12)NC(=O)[C@@H](Cc1c[nH]cn1)NC(=O)[C@@H](Cc1ccccc1)NC(=O)[C@H](NC(=O)[C@@H](Cc1ccc(O)cc1)NC(=O)CNC(=O)CNC(=O)CCOCCOCCOCCNC(=O)CN1CCN(CC(=O)O)CCN(CC(=O)O)CC1)[C@H](C)O)C(=O)N[C@H](CC(N)=O)C(=O)N1CCC[C@@H]1C(=O)O [gallium-68 labelled]			C57BL/6 mice, male	intravenous, 1.85 MBq, 60 min	baseline: tumour over heart	tissue ratio	5.66 ± 0.68
CN[C@H](CC(C)C)C(=O)N[C@H]1C(=O)N[C@@H](CC(N)=O)C(=O)N[C@H]2C(=N)N[C@H]3C(=O)N[C@H](C(=O)N[C@H](C(=O)NCCCNC(=N)N)c4cc(O)cc(O)c4-c4cc3ccc4O)[C@H](O)c3ccc(c(Cl)c3)Oc3cc2cc(c3O[C@@H]2O[C@H](CO)[C@@H](O)[C@H](O)[C@H]2O[C@H]2C[C@](C)(NCc3ccc(-c4ccc(Cl)cc4)cc3)[C@H](O)[C@H](C)O2)Oc2ccc(cc2Cl)[C@H]1O			mouse	intravenous, 10 mg/kg		volume of distribution	0.26 L/kg
CC[C@H](C)[C@H](NC(=O)[C@H](CCCNC(=N)N)NC(=O)[C@H](CCCCN)NC(=O)[C@H](Cc1ccc(O)cc1)NC(=O)[C@H](CC(=O)O)NC(=O)[C@H](C)NC(=O)CNC(=O)CCOCCOCCOCCNC(=O)CN1CCN(CC(=O)O)CCN(CC(=O)O)CCN(CC(=O)O)CC1)C(=O)N[C@H](C(=O)N[C@@H](CC(C)C)C(=O)N[C@@H](CCCCN)C(=O)N[C@H](C(=O)N[C@@H](CC(N)=O)C(N)=O)C(C)C)[C@@H](C)O [copper-64 labelled]		ex vivo gamma counting	C57BL/6J male mice, B16-F10 tumour, heart	intravenous, 1.85 MBq, 20 min		tissue uptake	0.986 ± 0.489 %ID/g
CC(=O)N[C@H](C(=O)N[C@@H](CCCC(=O)OC(C)(C)C)C(=O)N[C@@H](CCC1CCCCC1)C(=O)N[C@@H](CC(=O)O)C(=O)COC(=O)c1c(C)cccc1C)C(C)(C)C			C57BL/6N mouse, female, whole blood	intraperitoneal, dose not given, 3 h		blood concentration	439 µM and 589 µM
COc1ccccc1-c1n[nH]c2nc(NC3CCN(C(=O)Cc4ccc(F)cc4F)CC3)ncc12		bead binding, competition bead pull-down, item: LINJ.30.3230	Leishmania donovani axenic amastigote extract	10 µM	baseline: vehicle	relative abundance	1.05
Cc1ccc(NS(=O)(=O)c2c(C(=O)N3CCCCCC3)c(C)n(C)c2C)c(Cl)c1	human cells			3.704 µM, 60 h		viability	94.9%
CN(C)CCCNC(=O)C[C@H](Cc1ccc(F)cc1)NC(=O)[C@@H](Cc1ccc(Cl)cc1Cl)NC(=O)[C@H](N)Cc1ccccc1C#N			CD-1 mouse, liver microsomes	1 µM, time not given, epoxide hydrolase conditions		remaining compound	26%
CC[C@H](C)[C@H](NC(=O)[C@H](CCCCN)NC(=O)CNC(=O)[C@H](CC(C)C)NC(=O)[C@H](Cc1ccccc1)NC(=O)[C@H](CCCCN)NC(=O)[C@H](CO)NC(=O)[C@H](Cc1ccccc1)NC(=O)[C@H](Cc1c[nH]c2ccccc12)NC(=O)[C@H](CCC(N)=O)NC(=O)[C@@H](NC(=O)[C@H](Cc1ccccc1)NC(=O)CCCCCNC(=O)CN1CCN(CC(=O)O)CCN(CC(=O)O)CCN(CC(=O)O)CC1)C(C)C)C(=O)N[C@@H](CCC(=O)O)C(=O)N1CCC[C@H]1C(=O)N[C@H](CC(=O)O)C(=O)N[C@H](C(=O)N[C@@H](CO)C(=O)N[C@@H](CCC(N)=O)C(=O)N[C@H](C(=O)N[C@@H](CCC(N)=O)C(=O)N[C@@H](CC(=O)O)C(=O)N1CCC[C@H]1C(=O)N[C@@H](CC(N)=O)C(=O)N[C@@H](CC(=O)O)C(=O)N[C@@H](CCC(N)=O)C(=O)N[C@@H](Cc1ccc(O)cc1)C(=O)N[C@@H](CCC(=O)O)C(=O)N1CCC[C@H]1C(=O)N[C@@H](Cc1ccccc1)C(=O)O)C(C)C)C(C)C [copper-64 labelled]			female mice, EMT6 tumour-bearing, blood	2 h, uncleavable control tracer, vehicle-treated		tissue uptake	2.11 ± 0.12 %ID/g
CC(C)(C)C(=O)OCOP(=O)(OCOC(=O)C(C)(C)C)C1CCCN(O)C1=O (stereo not drawn)	SN12C					GI50	334 nM
O=C1NC2(CC2)COc2ncc(F)cc2[C@H]2COCCN2c2ccn3ncc1c3n2			Sprague-Dawley rat, female, kidneys	oral, 2.5 mg/kg/day, 4 weeks dosing, end of recovery		organ-to-brain weight ratio	94.5 ± 4.42%
Cc1ccccc1-c1ccc(-c2nc(-c3ccc(CN(C)CCCC(=O)O)c([18F])c3)no2)cc1C(F)(F)F			rat, brain	5 min		tracer uptake	0.4 %ID/g
COc1ccc(-n2cc(C(=O)N3C[C@]4(OC(=O)c5ccccc5NC(C)=O)CC[C@H](OC)[C@@]56[C@@H]4C[C@@H]([C@@H]35)[C@@]3(O)C[C@H](OC)[C@H]4C[C@@H]6[C@]3(O)[C@H]4OC)nn2)cc1			rat Sprague-Dawley, plasma	intravenous, 2 mg/kg		MRT(0-inf)	25.6 min
CC(C)[C@H]1NC(=O)C[C@H]2/C=C/CCSSC[C@@H](NC1=O)C(=O)N[C@H](Cc1cccc3ccccc13)C(=O)NCC(=O)O2	INSRR (Homo sapiens, UniProt P14616)	enzyme activity, inhibitor		10 µM		inhibition	1.3%
COc1ccccc1-c1n[nH]c2nc(N[C@H]3CC[C@H](NS(=O)(=O)CC(C)C)CC3)ncc12		bead binding, competition bead pull-down, item: LMJF.35.0370	Leishmania donovani extract	10 µM	baseline: vehicle	relative abundance	0.91
CCc1nn(C)c2nc(-c3ccc(C(=O)O)cc3)nc(NCc3ccccc3)c12			male CD-1 mouse, plasma	oral, 10 mg/kg, 4 h		concentration	714 ng/mL
C/C(=N\OCCCN1CCCCC1)c1ccc(C(F)(F)F)cc1			C57BL/6 mouse, plasma	intravenous, 5 mg/kg, 4 h		plasma concentration	70 ± 18.2 ng/mL
O=C1NC(=O)c2c1c1cc(F)c[n+]3c1c1c2c2cc(O)ccc2[n]1[Ru-4]312([N]=C=S)[S+]3CC[S+]1CC[S+]2CC3 (stereo not drawn)	PDGFRA (Homo sapiens, UniProt P16234)	enzyme activity		100 nM, human enzyme, with: 10 µM ATP	baseline: untreated	remaining activity	113%
CN1CCCCC1C(=O)NC(Cc1ccc(-c2ccccc2)cc1)B(O)O (stereo not drawn)			rat, plasma	intravenous, 1 mg/kg		clearance	23.3 mL/min/kg
Cc1ccc(OCC(=O)N(Cc2cccs2)c2ccn[nH]2)cc1		in vivo micronucleus	Crl:CD-1(ICR) mice, male, bone marrow polychromatic erythrocytes	oral, 1500 mg/kg/day, 3 days		micronucleated PCEs	0.04 ± 0.02%
CC[C@H](C)[C@H](NC(=O)[C@H](Cc1ccc(O)cc1)NC(=O)[C@@H](NC(=O)[C@H](CCCNC(=N)N)NC(=O)[C@@H](N)CC(=O)O)C(C)C)C(=O)N[C@@H](Cc1c[nH]cn1)C(=O)N1CCC[C@H]1C(=O)O			Beagle dogs, both sexes, plasma	subcutaneous, 10 mg/kg/day, day 0		Tmax	26.2 ± 10.6 min
C#Cc1c(F)ccc2cc(O)cc(-c3ncc4c(N5CC6CCC(C5)N6C(=O)OC(C)OC(=O)CC56CC7CC(CC(C7)C5)C6)nc(OC[C@@]56CCCN5C[C@H](F)C6)nc4c3F)c12 (stereo partly drawn)		chemical stability	simulated intestinal fluid	1 µM, 30 min		compound remaining	80%
CS(C)(=O)=Nc1ccc(-c2ccc(-c3nc4cc(O[C@@H]5CO[C@H]6[C@@H]5OC[C@H]6O)[nH]c4cc3F)cc2)cc1	Protein kinase C beta type, isoform beta-I (PRKCB, Homo sapiens, UniProt P05771)	kinase activity		10 µM		inhibition	-3%
CC(C)[C@@H]1NC(=O)CNC(=O)[C@H](CC(N)=O)NC(=O)[C@H](CCCNC(=N)N)NC(=O)[C@H](Cc2ccc(O)cc2)NC(=O)[C@H](C(C)C)NC(=O)[C@@H](NC(=O)[C@@H](NC(=O)[C@H](CC(N)=O)NC(=O)[C@H](Cc2c[nH]c3ccccc23)NC(=O)[C@H](C)NC(=O)[C@H](Cc2ccccc2)NC(=O)CNC(=O)[C@H](CCCCN)NC(=O)[C@H](Cc2ccccc2)NC(=O)[C@H](Cc2ccccc2)NC(=O)[C@H](CCCCN)NC(=O)OCC2c3ccccc3-c3ccccc32)C(C)C)CSSC[C@@H](C(=O)N[C@@H](Cc2c[nH]cn2)C(=O)N[C@@H](CCCNC(=N)N)C(=O)N[C@@H](CCCNC(=N)N)C(=O)N[C@@H](C)C(=O)N[C@@H](CC(N)=O)C(N)=O)NC(=O)[C@H](C(C)C)NC(=O)[C@H](CCCNC(=N)N)NC1=O			ICR mice, serum	intraductal mammary, 5 mg/kg, day 5		phosphorus	3.19 ± 0.18 mmol/L

For quick reference, copied from above:
Compound	tested on	assay	system	conditions	scale	measurement	value
CN(C)CCCNC(=O)C[C@H](Cc1ccc(F)cc1)NC(=O)[C@@H](Cc1ccc(Cl)cc1Cl)NC(=O)[C@H](N)Cc1ccccc1C#N			CD-1 mouse, liver microsomes	1 µM, time not given, epoxide hydrolase conditions		remaining compound	26%
CC[C@H](C)[C@H](NC(=O)[C@H](CCCCN)NC(=O)CNC(=O)[C@H](CC(C)C)NC(=O)[C@H](Cc1ccccc1)NC(=O)[C@H](CCCCN)NC(=O)[C@H](CO)NC(=O)[C@H](Cc1ccccc1)NC(=O)[C@H](Cc1c[nH]c2ccccc12)NC(=O)[C@H](CCC(N)=O)NC(=O)[C@@H](NC(=O)[C@H](Cc1ccccc1)NC(=O)CCCCCNC(=O)CN1CCN(CC(=O)O)CCN(CC(=O)O)CCN(CC(=O)O)CC1)C(C)C)C(=O)N[C@@H](CCC(=O)O)C(=O)N1CCC[C@H]1C(=O)N[C@H](CC(=O)O)C(=O)N[C@H](C(=O)N[C@@H](CO)C(=O)N[C@@H](CCC(N)=O)C(=O)N[C@H](C(=O)N[C@@H](CCC(N)=O)C(=O)N[C@@H](CC(=O)O)C(=O)N1CCC[C@H]1C(=O)N[C@@H](CC(N)=O)C(=O)N[C@@H](CC(=O)O)C(=O)N[C@@H](CCC(N)=O)C(=O)N[C@@H](Cc1ccc(O)cc1)C(=O)N[C@@H](CCC(=O)O)C(=O)N1CCC[C@H]1C(=O)N[C@@H](Cc1ccccc1)C(=O)O)C(C)C)C(C)C [copper-64 labelled]			female mice, EMT6 tumour-bearing, blood	2 h, uncleavable control tracer, vehicle-treated		tissue uptake	2.11 ± 0.12 %ID/g
